{"data": "Assay results of several laboratories", "note": "Protocols differ between the studies behind these lines. ± marks the error that the study gave."}
{"Compound": "CN1CCN(S(=O)(=O)c2ccc(-c3ccc4ncnc(Nc5ccc(F)cc5)c4c3)cc2)CC1", "organism": "Trypanosoma cruzi", "assay": "intracellular amastigote growth, β-galactosidase CPRG", "system": "3T3, Tulahuen, β-galactosidase-expressing", "conditions": "96 h", "EC50": "> 50000 nM"}
{"Compound": "CC1(F)CN(C(=O)Cn2c(=O)c(C(=O)NCc3ccc(Cl)cc3)cc3nc(N4CCN(CCN)C4=O)cnc32)C1", "organism": "human cytomegalovirus", "assay": "viral replication, plaque reduction", "system": "HFF-1, AD169 US3-6-EGFP", "conditions": "240 h", "EC50": "211 nM"}
{"Compound": "O=C(c1cccc(-c2ccc3ncnc(Nc4ccc(OCc5cccc(F)c5)c(Cl)c4)c3c2)c1)N1CCOCC1", "organism": "Trypanosoma cruzi", "assay": "intracellular amastigote growth, β-galactosidase CPRG", "system": "3T3, Tulahuen, β-galactosidase-expressing", "conditions": "96 h", "EC50": "3500 nM"}
{"Compound": "C[C@H](NC(=O)Cc1cc(F)cc(F)c1)C(=O)N[C@@H]1C(=O)N(C)c2ccccc2-c2ccccc21", "organism": "Zika virus", "assay": "viral replication", "system": "Huh-7.5.1, nanoluciferase reporter", "conditions": "48 h", "EC50": "262 nM"}
{"Compound": "O=C(CCN(CCC(=O)N[C@@H](Cc1c[nH]c2ccccc12)C(=O)O)C(=O)CCN(CCC(=O)N(CCC(=O)N[C@@H](Cc1c[nH]c2ccccc12)C(=O)O)CCC(=O)N[C@@H](Cc1c[nH]c2ccccc12)C(=O)O)C(=O)[C@H]1C[C@@H](C(=O)N(CCC(=O)N(CCC(=O)N[C@@H](Cc2c[nH]c3ccccc23)C(=O)O)CCC(=O)N[C@@H](Cc2c[nH]c3ccccc23)C(=O)O)CCC(=O)N(CCC(=O)N[C@@H](Cc2c[nH]c3ccccc23)C(=O)O)CCC(=O)N[C@@H](Cc2c[nH]c3ccccc23)C(=O)O)C[C@@H](C(=O)N(CCC(=O)N(CCC(=O)N[C@@H](Cc2c[nH]c3ccccc23)C(=O)O)CCC(=O)N[C@@H](Cc2c[nH]c3ccccc23)C(=O)O)CCC(=O)N(CCC(=O)N[C@@H](Cc2c[nH]c3ccccc23)C(=O)O)CCC(=O)N[C@@H](Cc2c[nH]c3ccccc23)C(=O)O)C1)N[C@@H](Cc1c[nH]c2ccccc12)C(=O)O", "organism": "respiratory syncytial virus", "assay": "viral replication", "system": "HeLa cells, Long", "EC50": "6700 ± 190 nM"}
{"Compound": "CN1CCN(S(=O)(=O)c2ccc(-c3ccc4ncnc(Nc5ccc(Cl)cc5)c4c3)cc2)CC1", "organism": "Trypanosoma cruzi", "assay": "intracellular amastigote growth, β-galactosidase CPRG", "system": "3T3, Tulahuen, β-galactosidase-expressing", "conditions": "96 h", "EC50": "21400 nM"}
{"Compound": "CCC1(CC)CC(=O)N(C2c3cc(C(=O)NC4c5ccccc5CC4O)ccc3OC2(C)COC)C(=N)N1 (centres unmarked)", "organism": "Plasmodium falciparum", "assay": "parasite growth", "system": "Dd2-ATV", "EC50": "0.3 nM"}
{"Compound": "CC(C)(C)OCc1ccc(-c2ccc3ncnc(Nc4ccc(OCc5cccc(F)c5)c(Cl)c4)c3c2)cc1", "organism": "Trypanosoma cruzi", "assay": "intracellular amastigote growth, β-galactosidase CPRG", "system": "3T3, Tulahuen, β-galactosidase-expressing", "conditions": "96 h", "EC50": "2200 nM"}
{"Compound": "COC(=O)c1c(C)cc(O)c(=O)c(O)c1C(=O)OC", "organism": "Hepatitis B virus", "assay": "viral replication, inhibitor, qPCR", "system": "HepDES19", "EC50": "2700 nM"}
{"Compound": "C[C@@]1(O)[C@H](O)[C@@H](CO)O[C@H]1n1ccc2c(N)ncnc21", "organism": "Zika virus", "assay": "viral replication", "system": "Huh-7.5.1, nanoluciferase reporter", "conditions": "48 h", "EC50": "7760 nM"}
{"Compound": "O=S(=O)(c1ccc(-c2ccc3ncnc(Nc4ccc(OCc5cccc(F)c5)c(Cl)c4)c3c2)cc1)N1CCNCC1", "organism": "Trypanosoma cruzi", "assay": "intracellular amastigote growth, β-galactosidase CPRG", "system": "3T3, Tulahuen, β-galactosidase-expressing", "conditions": "96 h", "EC50": "790 nM"}
{"Compound": "CON(C(=O)c1cn(C)nc1C(F)F)C(C)Cc1c(Cl)cc(Cl)cc1Cl (centres unmarked)", "organism": "Ustilaginoidea virens", "assay": "mycelial growth", "conditions": "12 h", "EC50": "0.0326 µg/mL"}
{"Compound": "O=C(NNc1ccccc1)c1nnc(C23CC4CC(CC(C4)C2)C3)o1", "organism": "Rhizoctonia solani", "assay": "microbial growth", "EC50": "> 50 µg/mL"}
{"Compound": "COc1ccccc1-c1n[nH]c2nc(N[C@H]3CC[C@H](NS(=O)(=O)CC(C)C)CC3)ncc12", "organism": "Leishmania donovani", "system": "promastigotes, LdBOB CRK12 single knockout", "EC50": "0.8 ± 0.004 nM"}
{"Compound": "O=c1c(O)ccc(-c2ccc(-c3ccccc3)cc2)cc1O", "organism": "Hepatitis B virus", "assay": "viral replication, inhibitor, qPCR", "system": "HepDES19", "EC50": "2800 nM"}
{"Compound": "c1ccc(Nc2ncnc3ccc(-c4cccc(N5CCOCC5)c4)cc23)cc1", "organism": "Trypanosoma cruzi", "assay": "intracellular amastigote growth, β-galactosidase CPRG", "system": "3T3, Tulahuen, β-galactosidase-expressing", "conditions": "96 h", "EC50": "6700 nM"}
{"Compound": "O=c1c(O)ccc(-c2cccc(-c3ccccc3)c2)cc1O", "organism": "Hepatitis B virus", "assay": "viral replication, inhibitor, qPCR", "system": "HepDES19", "EC50": "2400 nM"}
{"Compound": "Nc1nc(Nc2ccc(Cl)cc2)nn1S(=O)(=O)c1ccc2ccccc2c1", "organism": "Usutu virus", "assay": "viral replication", "system": "Vero 76, TC-508", "EC50": "6400 nM"}
{"Compound": "COC(=O)c1c2c(cc(O)c(=O)c1O)COC2=O", "organism": "Hepatitis B virus", "assay": "viral replication, inhibitor, qPCR", "system": "HepDES19", "EC50": "500 nM"}
{"Compound": "C[C@H](NC(=O)[C@@H](O)c1cc(F)cc(F)c1)C(=O)N[C@@H]1C(=O)N(C)c2ccccc2-c2ccccc21", "organism": "Zika virus", "assay": "viral replication", "system": "Huh-7.5.1, nanoluciferase reporter", "conditions": "48 h", "EC50": "38.9 nM"}
{"Compound": "O=C(CCN(CCC(=O)N[C@@H](Cc1c[nH]c2ccccc12)C(=O)O)C(=O)CCN(CCC(=O)N(CCC(=O)N[C@@H](Cc1c[nH]c2ccccc12)C(=O)O)CCC(=O)N[C@@H](Cc1c[nH]c2ccccc12)C(=O)O)C(=O)CCC(CCC(=O)N(CCC(=O)N(CCC(=O)N[C@@H](Cc1c[nH]c2ccccc12)C(=O)O)CCC(=O)N[C@@H](Cc1c[nH]c2ccccc12)C(=O)O)CCC(=O)N(CCC(=O)N[C@@H](Cc1c[nH]c2ccccc12)C(=O)O)CCC(=O)N[C@@H](Cc1c[nH]c2ccccc12)C(=O)O)(CCC(=O)N(CCC(=O)N(CCC(=O)N[C@@H](Cc1c[nH]c2ccccc12)C(=O)O)CCC(=O)N[C@@H](Cc1c[nH]c2ccccc12)C(=O)O)CCC(=O)N(CCC(=O)N[C@@H](Cc1c[nH]c2ccccc12)C(=O)O)CCC(=O)N[C@@H](Cc1c[nH]c2ccccc12)C(=O)O)[N+](=O)[O-])N[C@@H](Cc1c[nH]c2ccccc12)C(=O)O", "organism": "respiratory syncytial virus", "assay": "viral replication", "system": "HeLa cells, Long", "EC50": "11000 ± 180 nM"}
{"Compound": "S=C=NCc1ccccc1", "organism": "Phelipanche ramosa", "assay": "seed germination, stimulant", "system": "seeds", "EC50": "71 nM"}
{"Compound": "CC(=O)CCC1C(=O)NC(C(C)C)C(=O)NC(Cc2cc(O)cc(F)c2)C(=O)N2CCCC(N2)C(=O)OC(C(C)=CC=CC(=O)N2CCCCO2)CC=CC=CC(O)C(C)C1O (centres unmarked)", "organism": "Hepatitis C virus", "assay": "viral replication", "system": "Huh7, Con1 replicon", "conditions": "5% human serum", "EC50": "11 ± 2 nM"}
{"Compound": "Cc1cc(O)c(=O)c(O)cc1-c1cccc2ccccc12", "organism": "Hepatitis B virus", "assay": "viral replication, inhibitor, qPCR", "system": "HepDES19", "EC50": "2300 nM"}
{"Compound": "Nc1nc(Nc2ccc(Cl)c(Cl)c2)nn1S(=O)(=O)c1ccc2ccccc2c1", "organism": "Zika virus", "assay": "viral replication", "system": "Vero 76, MR766", "EC50": "4800 nM"}
{"Compound": "CN1CCN(S(=O)(=O)c2ccc(-c3ccc4ncnc(Nc5ccc(OCc6ccccc6)c(Cl)c5)c4c3)cc2)CC1", "organism": "Trypanosoma cruzi", "assay": "intracellular amastigote growth, β-galactosidase CPRG", "system": "3T3, Tulahuen, β-galactosidase-expressing", "conditions": "96 h", "EC50": "3900 nM"}
{"Compound": "Cc1cc(O)c(=O)c(O)cc1S(=O)(=O)c1ccccc1", "organism": "Hepatitis B virus", "assay": "viral replication, inhibitor, qPCR", "system": "HepDES19", "EC50": "400 nM"}
{"Compound": "Fc1cccc(COc2ccc(Nc3ncnc4ccc(-c5ccc(N6CCCCC6)cc5)cc34)cc2Cl)c1", "organism": "Trypanosoma cruzi", "assay": "intracellular amastigote growth, β-galactosidase CPRG", "system": "3T3, Tulahuen, β-galactosidase-expressing", "conditions": "96 h", "EC50": "7200 nM"}
{"Compound": "Cc1cc(O)c(=O)c(O)cc1C(=O)O", "organism": "Hepatitis B virus", "assay": "viral replication, inhibitor, qPCR", "system": "HepDES19", "EC50": "7200 nM"}
{"note": "A few entries again:"}
{"Compound": "Cc1cc(O)c(=O)c(O)cc1-c1cccc2ccccc12", "organism": "Hepatitis B virus", "assay": "viral replication, inhibitor, qPCR", "system": "HepDES19", "EC50": "2300 nM"}
